Published values from different studies.
Every numbered part comes from another study and shows a few of its results, in no order. Changes are numbered by the printed parent chain.
UniProt P08588, sequence (whole entry, looked up): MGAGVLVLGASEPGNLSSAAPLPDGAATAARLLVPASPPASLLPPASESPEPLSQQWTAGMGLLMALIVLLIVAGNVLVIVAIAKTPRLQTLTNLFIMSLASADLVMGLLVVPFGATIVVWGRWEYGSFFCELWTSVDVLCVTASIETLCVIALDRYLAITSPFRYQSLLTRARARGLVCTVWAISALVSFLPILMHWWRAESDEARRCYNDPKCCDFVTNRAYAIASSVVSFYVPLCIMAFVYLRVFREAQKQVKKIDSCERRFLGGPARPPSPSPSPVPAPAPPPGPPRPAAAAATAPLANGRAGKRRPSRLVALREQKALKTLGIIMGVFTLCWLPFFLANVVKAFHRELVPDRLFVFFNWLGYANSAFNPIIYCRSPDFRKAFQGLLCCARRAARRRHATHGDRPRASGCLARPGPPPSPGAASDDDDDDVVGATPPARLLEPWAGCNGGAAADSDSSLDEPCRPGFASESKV

Set 1
Target: Sal-like protein 4, full length isoform A (SALL4, Homo sapiens, UniProt Q9UJQ4, residues 1-1053)
UniProt Q9UJQ4, sequence (whole entry, looked up): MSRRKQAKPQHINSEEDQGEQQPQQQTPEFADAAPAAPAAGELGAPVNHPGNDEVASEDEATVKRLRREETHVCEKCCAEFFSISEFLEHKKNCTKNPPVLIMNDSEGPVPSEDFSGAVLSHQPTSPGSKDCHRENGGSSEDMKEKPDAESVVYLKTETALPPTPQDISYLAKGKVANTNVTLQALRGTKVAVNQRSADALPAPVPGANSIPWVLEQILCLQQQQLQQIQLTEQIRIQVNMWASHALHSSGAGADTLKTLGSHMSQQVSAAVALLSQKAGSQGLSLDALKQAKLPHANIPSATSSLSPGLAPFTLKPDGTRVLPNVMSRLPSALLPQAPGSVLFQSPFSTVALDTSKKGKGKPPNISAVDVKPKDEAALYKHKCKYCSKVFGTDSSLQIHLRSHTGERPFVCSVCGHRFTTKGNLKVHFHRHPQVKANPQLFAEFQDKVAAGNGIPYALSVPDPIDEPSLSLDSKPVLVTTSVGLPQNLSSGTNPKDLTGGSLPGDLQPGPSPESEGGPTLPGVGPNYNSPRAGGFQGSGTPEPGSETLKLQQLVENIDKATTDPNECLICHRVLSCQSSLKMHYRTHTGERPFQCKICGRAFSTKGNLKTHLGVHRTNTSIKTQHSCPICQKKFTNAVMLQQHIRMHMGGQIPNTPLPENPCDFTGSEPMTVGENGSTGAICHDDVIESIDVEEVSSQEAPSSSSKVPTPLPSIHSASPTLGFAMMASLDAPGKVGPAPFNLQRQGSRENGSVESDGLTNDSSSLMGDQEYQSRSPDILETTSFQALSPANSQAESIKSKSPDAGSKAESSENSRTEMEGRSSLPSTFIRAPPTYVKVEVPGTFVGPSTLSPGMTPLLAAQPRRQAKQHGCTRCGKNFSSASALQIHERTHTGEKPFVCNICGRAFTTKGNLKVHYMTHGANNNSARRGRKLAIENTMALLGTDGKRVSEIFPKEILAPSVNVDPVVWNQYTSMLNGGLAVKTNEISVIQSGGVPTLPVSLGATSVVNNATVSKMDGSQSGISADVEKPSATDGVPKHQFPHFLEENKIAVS
Method: universal PBM
Molecule type: double-stranded DNA, one strand shown
Medium: in vitro
Tested at: 600 nM
Setting: 8-mer, flanks averaged, mean of replicates
Reading: higher = stronger binding
Quantity: E-score
GATCAGCA: -0.0758
AAGGTTAA: 0.157
ACAAATGT: 0.256
AGACGCCA: -0.162
ATGAGTCC: -0.055
CGTCTAAC: 0.00993
AAAGTTTA: 0.282
AACGAGAC: -0.0474

Set 2
Target: CCND3, cyclin fold, Cln2 fusion (human)
Method: yeast growth competition, sequencing
Medium: yeast
Setting: weak parent motif
Reference: not given
Reading: higher = stronger binding
Quantity: normalised enrichment score
Parent: viral docking peptide; YKVKRRLVFGADD
G10T: 0.0324
R5M: 0.153
D12S: 0.107
R5S: 0.0793
V3E: 0.0674
R6S: 0.209
F9N: 0.163
L7N: 0.417
V3H: -0.0114
R6L: 0.583
L7E: 0.436
F9M: 0.022
V3P: 0.294
R6C: 0.1
V3S: 0.208
V8S: 0.719
V3Q: 0.154
A11G: 0.295
R5V: 0.328
A11C: 0.033
A11I: 0.106
F9D: 0.341
G10E: 0.275
A11L: 0.205
R5F: -0.21

Set 3
Target: PABPC1L2, full length, GST fusion (mouse, UniProt A0ABA7IW68)
Method: RNAcompete
Molecule type: RNA
Medium: in vitro
Tested at: 20 nM
Setting: 7-mer, probes averaged, single round
Reference: mean of 7-mers
Reading: higher = stronger binding
Quantity: 7-mer Z-score
Residues (chain): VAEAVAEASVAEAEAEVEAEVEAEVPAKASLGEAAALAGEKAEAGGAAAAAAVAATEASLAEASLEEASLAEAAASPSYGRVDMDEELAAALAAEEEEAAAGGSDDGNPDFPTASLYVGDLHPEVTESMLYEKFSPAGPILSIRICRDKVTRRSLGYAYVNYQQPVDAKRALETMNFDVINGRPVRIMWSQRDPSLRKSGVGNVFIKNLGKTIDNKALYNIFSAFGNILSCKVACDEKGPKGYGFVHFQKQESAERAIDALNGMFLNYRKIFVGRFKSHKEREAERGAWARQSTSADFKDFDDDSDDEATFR
GGACUGG: 0.222
UUAAGUA: -0.108
UGUUGGG: -0.124
CGCCGCA: -0.202
GCUAAUG: -0.267
GGCGUGC: 0.0569
UGGGAGC: 0.271
GCCGUCC: -0.449

Set 4
Target: Phosphate system positive regulatory protein PHO4, full length, GST-tagged (PHO4, Saccharomyces cerevisiae, UniProt P07270, residues 1-312)
Method: competition protein-binding microarray
Molecule type: double-stranded DNA, one strand shown
Medium: in vitro
Tested at: 2 µM
Setting: whole 60-bp probe, lowest competitor level
With: Cbf1 competitor, 0.05 µM
Reading: higher = stronger binding
Quantity: fluorescence intensity
Target sequence (chain): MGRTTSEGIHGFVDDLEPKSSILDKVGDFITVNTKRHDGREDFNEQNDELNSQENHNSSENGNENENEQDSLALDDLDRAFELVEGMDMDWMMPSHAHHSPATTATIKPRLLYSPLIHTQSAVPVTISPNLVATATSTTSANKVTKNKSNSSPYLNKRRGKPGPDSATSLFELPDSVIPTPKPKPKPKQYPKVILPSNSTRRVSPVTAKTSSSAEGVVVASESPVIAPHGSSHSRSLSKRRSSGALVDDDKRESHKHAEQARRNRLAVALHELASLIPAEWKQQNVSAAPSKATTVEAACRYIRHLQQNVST
CGGGGTTAAGTTTGCCGCGTGGGTGGCTTGCAGCAGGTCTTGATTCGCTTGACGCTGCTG: 10500 a.u.
GTTAAGTTATTATGACGCATGCAGATAGAAGGATCAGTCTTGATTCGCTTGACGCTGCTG: 8950 a.u.
CAGCGGCTTTCTTTTCACGGGCTTCTCTTTCAGCTTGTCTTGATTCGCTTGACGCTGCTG: 4040 a.u.
CGAAATATTATACGTCAGGTGTATATCAAGTGCTCAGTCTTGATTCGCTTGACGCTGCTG: 4500 a.u.
ACCTGAAATCCTTTTACAAACCATATTTAGATGTGCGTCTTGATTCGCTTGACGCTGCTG: 4130 a.u.
CTTCTGTAAATTTGTTTGGTGGGTGGACGCGCCCCGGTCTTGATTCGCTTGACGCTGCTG: 4110 a.u.
TACGACGAAGCTTTGCACGTGTAGGAAAGAGGAAATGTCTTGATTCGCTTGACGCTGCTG: 14600 a.u.
AAATTACTAAGTTGAATAGTGGGTGACGCCGTATGAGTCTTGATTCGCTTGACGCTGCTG: 4050 a.u.

Mixed results
c1ccc(C2CC2)c(OCC2=NCCN2)c1 — Emax (Beta-1 adrenergic receptor (ADRB1, Homo sapiens, UniProt P08588); agonist): 90.2%
